Measured values from different studies.
Lines come from different studies, so protocols differ.
Target: Sodium-dependent serotonin transporter (SLC6A4, Homo sapiens, UniProt P31645)
Sequence of UniProt P31645 (whole entry, looked up): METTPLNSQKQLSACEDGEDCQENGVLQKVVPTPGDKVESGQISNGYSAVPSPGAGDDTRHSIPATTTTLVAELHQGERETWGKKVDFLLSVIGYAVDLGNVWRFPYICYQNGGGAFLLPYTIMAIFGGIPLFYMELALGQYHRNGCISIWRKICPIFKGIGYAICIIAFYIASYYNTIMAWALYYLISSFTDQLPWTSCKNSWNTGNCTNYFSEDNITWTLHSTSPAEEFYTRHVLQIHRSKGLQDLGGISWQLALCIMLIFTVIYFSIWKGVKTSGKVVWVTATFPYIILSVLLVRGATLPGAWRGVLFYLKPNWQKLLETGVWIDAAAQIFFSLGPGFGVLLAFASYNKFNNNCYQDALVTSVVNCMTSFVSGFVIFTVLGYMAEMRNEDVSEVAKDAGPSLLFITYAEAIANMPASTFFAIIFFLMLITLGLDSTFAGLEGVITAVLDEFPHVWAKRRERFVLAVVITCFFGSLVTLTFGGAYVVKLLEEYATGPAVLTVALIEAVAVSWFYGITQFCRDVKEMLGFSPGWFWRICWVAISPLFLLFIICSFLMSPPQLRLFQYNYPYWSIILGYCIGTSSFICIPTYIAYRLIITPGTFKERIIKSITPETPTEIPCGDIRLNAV

| SMILES | assay | test system | setting | scale | inhibition [%] |
| --- | --- | --- | --- | --- | --- |
| COc1ccc(S(=O)(=O)N2CCc3ccccc3C2)cc1N1CCN(C(=O)c2ccc(F)cc2C(F)(F)F)CC1 | ligand displacement, radioligand |  | 1 µM |  | -5.3 |
| Cc1[nH]nc2c1N=C(c1ccccc1Cl)c1cnc(N3CCOCC3)cc1N2 | cell-free assay |  | 10 µM |  | -4 |
| O=C1c2sc(-c3ccc(N4CCC(CO)CC4)nc3F)nc2CCN1c1cccnc1 | ligand displacement, radioligand |  | 1 µM |  | -3 |
| CCC(=O)N(C)c1ccc(Cl)c(Cl)c1 | binding, radioligand binding |  | 10 µM |  | < 10 |
| Cn1ccc2cc(-n3c(=O)[nH]c4sc5c(c4c3=O)CCCC5)ccc21 | transporter uptake, inhibitor |  | 10 µM |  | 4 |
| COc1ccc(C(=O)Nc2c(-c3cccs3)nc3ccccn23)cc1 | ligand displacement, radioligand |  | 10 µM |  | < 50 |
| COCC(=O)N1CCc2cc(-c3csc(NC(=O)c4cc(OC)cc(OC)c4)n3)ccc21 |  |  | 10 µM |  | 9 |
| CNC(=O)C12CC1C(n1cnc3c(NC)nc(C#Cc4ccccc4Cl)nc31)C(O)C2O (centres unmarked) | radioligand binding | HEK293 | 10 µM, added: [3H]citalopram | negative = enhanced binding | -34 |
| C[Si](C)(C)C[C@@H](CN)CC(=O)O | ligand displacement, radioligand |  | 75 µM |  | 3 |
| Brc1ccccc1-c1nnc(CSc2nnnn2-c2ccccc2)o1 | ligand displacement, radioligand |  | 10 µM |  | -14 |
| CCOC(=O)C12CC1C(n1cnc3c(NC)nc(C#Cc4ccc(F)s4)nc31)C(O)C2O (centres unmarked) | ligand displacement, radioligand |  | 10 µM |  | 6 |
| Cc1cccc(O[C@H]2CCC[C@@H](C(C)CNCc3ccncc3)C2)c1 (relative stereo) | cell-free assay |  | 10 µM |  | 87 |
| CC(=O)c1cnc(N)nc1N1CC[C@H]1c1nn2ccc(Cl)c2c(=O)n1-c1ccccc1 | ligand displacement, radioligand |  | 10 µM |  | 17 |
| CO[C@@H](C)c1c(NC(=O)Nc2cnc(-n3nccn3)c(C(F)(F)F)c2)cnc2sc(C)nc12 | ligand displacement, radioligand |  | 10 µM |  | -3.5 |

For quick reference, copied from above:
| SMILES | assay | test system | setting | scale | inhibition [%] |
| --- | --- | --- | --- | --- | --- |
| COCC(=O)N1CCc2cc(-c3csc(NC(=O)c4cc(OC)cc(OC)c4)n3)ccc21 |  |  | 10 µM |  | 9 |
